Assay results gathered from unrelated publications.
A part holds a random share of what one study measured.

Study 1
Target: Ras GTPase-activating protein-binding protein 1, full length (G3BP1, Homo sapiens, UniProt Q13283)
UniProt Q13283, sequence (whole entry, looked up): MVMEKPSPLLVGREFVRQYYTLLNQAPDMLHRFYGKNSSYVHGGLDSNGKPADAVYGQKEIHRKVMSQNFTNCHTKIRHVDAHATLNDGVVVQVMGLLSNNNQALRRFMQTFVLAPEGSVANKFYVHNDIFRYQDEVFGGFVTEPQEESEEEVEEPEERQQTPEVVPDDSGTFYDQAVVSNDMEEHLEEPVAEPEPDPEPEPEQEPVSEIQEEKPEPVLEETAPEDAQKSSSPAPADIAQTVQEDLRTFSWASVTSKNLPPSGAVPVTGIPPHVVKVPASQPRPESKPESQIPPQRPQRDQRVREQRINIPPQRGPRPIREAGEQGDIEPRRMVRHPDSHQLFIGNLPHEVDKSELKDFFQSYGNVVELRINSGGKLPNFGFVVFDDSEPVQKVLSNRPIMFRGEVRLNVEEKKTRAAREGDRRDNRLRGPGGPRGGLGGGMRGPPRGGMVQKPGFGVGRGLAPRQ
Method: RNA Bind-n-Seq
Molecule type: RNA
Matrix: in vitro
Tested at: 200 nM
Notes: whole 134-nt RNA, ends assumed
Together with: 150 mM KCl
Relative to: input library
Direction: higher = stronger binding
Quantity: log2 enrichment
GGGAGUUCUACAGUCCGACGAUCUAACUUUAGAGGAGGAUCUGAUGGAUAUGGCAGUGGACGUGGAUUUGGGGAUGGCUAUAAUGGGUAUGGCGGAGGACCUGGAGGUGGCAAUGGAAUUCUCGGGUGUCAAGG: 0.305
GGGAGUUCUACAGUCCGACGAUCAAGUCCUGUGCUACACAUCGUAUGUACCGAAUCGGGUUUUUGGGUUUGGGUUUGGGAAAGUAUUAUGUUACGCCGUUCGGAUCUGCACUUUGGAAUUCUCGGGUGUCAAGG: 0.0642
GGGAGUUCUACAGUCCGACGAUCUAACUUUCGAGGAGGAUCUGAUGGAUAUGGCAGUGGACGUGGAUUUGGGGAUGGCUAUAAUGGGUAUGGAGGAGGACCUGGAGGUGGCAAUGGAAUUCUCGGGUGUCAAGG: 0.509
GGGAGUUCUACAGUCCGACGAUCGUCCUGUGCUACACAUCGUAUGUACCGAAUCGGUUUUUGGAAAAAAAGGAAAAAAAGGAAAGUAUUAUGUUACGCCGUUCGGAUCUGCACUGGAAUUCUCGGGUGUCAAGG: -0.975
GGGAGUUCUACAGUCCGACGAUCAAGUCCUGUGCUACACAUCGUAUGUACCGAAUCGGGUUUGGGAAAGGGUUUUUGGGAAAGUAUUAUGUUACGCCGUUCGGAUCUGCACUUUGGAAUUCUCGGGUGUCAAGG: 0.244
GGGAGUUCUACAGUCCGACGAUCGUCCUGUGCUACACAUCGUAUGUACCGAAUCGGGGAAAAAGGGAAAAAGGGAAAAAGGGAAAGUAUUAUGUUACGCCGUUCGGAUCUGCAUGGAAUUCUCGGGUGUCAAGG: -0.0959

Study 2
Target: Histone acetyltransferase KAT6A, winged helix 1, GST fusion (KAT6A, Homo sapiens, UniProt Q92794, residues 1-85)
Method: protein binding microarray
Molecule type: double-stranded DNA, one strand shown
Matrix: in vitro
Tested at: not given
Notes: 8-mer, flanks averaged, mean of 2 arrays, mostly near background
Relative to: not given
Direction: higher = stronger binding
Quantity: E-score
Target sequence (chain): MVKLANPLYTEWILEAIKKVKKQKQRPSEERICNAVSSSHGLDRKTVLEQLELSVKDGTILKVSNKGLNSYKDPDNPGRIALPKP
CCCATCTC: -0.147
CGAAGTCA: -0.177
GCTGGTCC: 0.0499
GGCACTCA: -0.0357
GAGATTAA: -0.00204
ACCCTGAT: -0.169
AGGGTTAC: 0.0742
AACCGGTT: 0.133

Study 3
Target: Sal-like protein 4, full length isoform B (SALL4, Homo sapiens, UniProt Q9UJQ4-2, residues 1-616)
Method: universal PBM
Molecule type: double-stranded DNA, one strand shown
Matrix: in vitro
Tested at: not given
Notes: 8-mer, flanks averaged, mean of replicates
Direction: higher = stronger binding
Quantity: E-score
Target sequence (chain): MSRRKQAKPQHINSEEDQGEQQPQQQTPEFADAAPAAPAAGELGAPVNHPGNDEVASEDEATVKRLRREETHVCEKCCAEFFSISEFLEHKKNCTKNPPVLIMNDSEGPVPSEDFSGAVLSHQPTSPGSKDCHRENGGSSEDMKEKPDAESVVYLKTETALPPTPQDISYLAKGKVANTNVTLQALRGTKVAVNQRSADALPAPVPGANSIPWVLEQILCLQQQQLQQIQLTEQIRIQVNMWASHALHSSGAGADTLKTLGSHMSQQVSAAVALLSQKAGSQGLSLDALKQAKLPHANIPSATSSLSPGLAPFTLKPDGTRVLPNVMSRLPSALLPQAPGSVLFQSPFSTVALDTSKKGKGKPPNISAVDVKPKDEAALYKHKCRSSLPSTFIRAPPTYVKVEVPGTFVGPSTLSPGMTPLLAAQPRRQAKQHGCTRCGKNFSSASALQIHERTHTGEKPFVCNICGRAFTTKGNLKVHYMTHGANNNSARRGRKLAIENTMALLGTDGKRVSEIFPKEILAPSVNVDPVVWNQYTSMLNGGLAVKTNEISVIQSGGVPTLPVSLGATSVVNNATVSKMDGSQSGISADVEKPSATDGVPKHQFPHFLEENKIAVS
CGACCGTC: -0.287
CGGATATA: 0.153
CAAAGATC: 0.106
AGCGGATA: -0.156

Single results of other studies
PhoQ, residues 284 288 289 292 302 303 NSMLDC
fold induction (PhoP, residues 12 14 15 18 19 AGCRL (Escherichia coli, UniProt P23836); Sort-seq, measured: YFP reporter; E. coli; PhoQ-PhoP variant library, together with: 10 µM Mg2+; relative to: high Mg2+ state, higher = stronger signaling): 17.6

Repeated from above (study 3):
CGACCGTC: -0.287
AGCGGATA: -0.156
CGGATATA: 0.153
